Experimental data from different studies.
A part holds a random share of what one study measured. Positions count from the first letter of the parent shown.

Series 1
Target: RNA binding protein fox-1 homolog 2, RRM domain, GST-SBP tag (RBFOX2, Homo sapiens, UniProt O43251-10, residues 100-194)
Technique: RNA Bind-n-Seq
Molecule type: RNA
Matrix: in vitro
Concentration: 365 nM
Notes: natural RNA segment, single round, ends assumed
Relative to: no-protein control
Direction: higher = stronger binding
Measurement: RBNS enrichment (R)
Constant ends, left off below: GGGAGUUCUACAGUCCGACGAUC … UGGAAUUCUCGGGUGCCAA
Target sequence (chain): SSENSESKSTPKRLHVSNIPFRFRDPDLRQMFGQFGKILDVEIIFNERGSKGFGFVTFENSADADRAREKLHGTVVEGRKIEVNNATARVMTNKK
CACCAGAUCAAAAGGCAUAAACCAGACCUGUCCCAGGCCGAUGUGGAAAUAUGUUCUUUCUAGUUGUGGGUACCCUGAUCUAGGUGGUUUGUAAUUGUGCAUUACUGACU: 0.494
AUUUUCAUUUGUUUCAGUAUUGUUGGUUUUCUCUUUUCUCUUUUUUACACUGUGGUACAUAUAAGCAACUUGACUAGUGACAAAUGUACAGUAGUUAGAUAUCACCUACA: 0.905
GGAUCACUAAACUAGGUAGAGAAGGGCACACCACACCCCAGCGCCCCAGGAGCCAAAACUCACGCUCGGGCAGCAGCAGCUGAGGCUUGAGGAAGCUGGUGUCCUAAGAC: 0.242
CUGGCCUCUGACUGCAUUGCUUUAGGUCGUAUUCAAACUCUCUUAAACAUUGUGCCAAGAAACGAUUUGUGGGAUUCAUGUCCCGAAACCAUUAAAUCUAUUGUUUGGAA: 0.714
GGAUUCCUGGGCAUCUACUUCCACAACUAAUACGUAUUCCACAGUGUUGGCUGUUGGCUUCAAAAAAAGGAAUUCUCUUAACAUGCUAUGUUGGUCAGCGUCCACCUCCU: 0.595
GCACACAAACUAUGAGCAGACCACUUCAGCUUGAGAAUGCAGUGGGUCUGAAGAUGGUCAAGUCUGUUUGCCUUAGAUUUUGAUGUCACCUAGACAACACUUAAACUCAU: 13.2
UAUUAAAAACUCAUGUGGAGGAACUCAAGGAAUGUUUAGAAGACCAAAAGUCCCCAAUGACAGGAACAAAAGCAACCAAUUUUUAACUUUCUCUUCUCAUUCCUGUUUUC: 0.972
UCAGUGUUGGAGCUCUCUAUGAGGCCUUCUAUCCUUUGGCCCAUGCCUUGGAUGGAGACAGACACUACUGGAGAAGGGGGCUGCCUUCCCCAGAAAGAAUACUACCUAAA: 0.237
GCUUGUAUGUUACCAUACAGCUGACAUGUAUUUUUUGUCUAUUCUUUAUUAUCUUAGUAGUUUCAUGCUGUGUAUGUACCAUAACCAACCUAUUGCCUAUGAGAAACAUG: 0.811
UUAAACCCCUGUUAACUCUCCAUAAAUUUGGUGAUUCUCUGCUAGGCCUAAGAUUUUGAGUUAACAUCUCUUGAAGCCAAACUCCACCUUCUGUGCUUUUUGCUUGGGAU: 0.43
UGGCUCAGCACAUUGACAUCACUAACUAGGGUUGGGAUAGCUUCCUACCCAGAUGACCAAAAAGCCAGUGGAAACAGUUAAGCCCCUCCAUAUCAGGCUUACCAAGAAUA: 0.335
GGAGAAGAGGGACCCCGGGGUUUCUAAUUUCAACCCCAAAUGACAUGUUUAUUUGCACCUGAUGCUCAGGAGCCAGAUGUGGACCCUGCAGAGCCAGGCUUGUACCACAG: 0.919

Series 2
Target: CREB3L3, bZIP domain (human)
Technique: DHFR protein complementation
Matrix: yeast
Notes: single substitutions, most at no-binding floor
Relative to: wild-type JUN-FOS pair
Direction: higher = stronger binding
Measurement: binding fitness
Starting sequence: JUN, bZIP domain (human); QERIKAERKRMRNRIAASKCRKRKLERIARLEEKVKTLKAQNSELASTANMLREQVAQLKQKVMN; partner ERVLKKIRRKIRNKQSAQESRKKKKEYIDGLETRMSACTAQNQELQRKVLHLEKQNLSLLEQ
R53A: -1.45 natural log
K34M: -1.43 natural log
N42M: -1.45 natural log
S47G: -1.43 natural log
A49E: -1.47 natural log
V56E: -1.47 natural log
A49V: -1.2 natural log
V35Q: -1.47 natural log
R53K: -1.53 natural log
V56Y: -1.32 natural log
I28C: -1.43 natural log
L52T: -1.55 natural log

Series 3
Target: Interferon regulatory factor 7, full length, phosphomimetic (IRF7, Homo sapiens, UniProt Q92985, residues 1-503, S101K/S471D/S472D/S475D/S476D/S477D/S483D/S484D/S487D)
Technique: protein-binding microarray
Molecule type: double-stranded DNA, one strand shown
Matrix: in vitro
Concentration: 250 nM
Notes: 60-bp whole probe
Added: salmon DNA 0.4 mg/ml
Relative to: random background probes
Direction: higher = stronger binding
Measurement: log fluorescence
Constant ends, left off below: GCCTAGCAC … GTCTTGATTCGCTTGACGCTGCTG
Construct (chain): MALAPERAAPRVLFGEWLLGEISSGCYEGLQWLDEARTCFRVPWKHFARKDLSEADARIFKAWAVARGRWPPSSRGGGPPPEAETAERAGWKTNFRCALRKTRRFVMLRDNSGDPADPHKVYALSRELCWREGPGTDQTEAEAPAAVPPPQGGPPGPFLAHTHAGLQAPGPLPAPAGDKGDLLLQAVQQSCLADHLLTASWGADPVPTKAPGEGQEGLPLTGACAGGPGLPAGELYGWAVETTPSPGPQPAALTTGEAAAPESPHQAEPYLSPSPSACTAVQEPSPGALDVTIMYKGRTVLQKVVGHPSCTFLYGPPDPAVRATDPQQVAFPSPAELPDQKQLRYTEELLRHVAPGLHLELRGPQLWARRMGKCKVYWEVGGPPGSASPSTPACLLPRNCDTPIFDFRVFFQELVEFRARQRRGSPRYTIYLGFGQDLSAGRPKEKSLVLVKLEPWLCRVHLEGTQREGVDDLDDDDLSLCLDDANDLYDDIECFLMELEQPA
GGAGGAGCGGGACTGCCACCGTGCTAG: -1.2 z-score
CACGGTTTCCTTTTCCTGACGTGCTAG: 6.66 z-score
GACGGTTGCCTTTCCCTGACGTGCTAG: -0.0718 z-score
GGTGTAAGGAACTGAAGTGAGTGCTAG: -0.75 z-score
CTGGATCTCAGACTGTGTCCGTGCTAG: -0.147 z-score
TTTTTTTTCACTATTGCTTCGTGCTAG: 1.45 z-score
GACGGTATCTTACTGCTGACGTGCTAG: -0.416 z-score
TCAGATATCAGTTTCGATTAGTGCTAG: 8.74 z-score
TCATCTCTCATGTTACAACTGTGCTAG: 0.87 z-score
GACGATCTCAGTTTCGAGATGTGCTAG: 5.14 z-score
TTAGGACTGTACTATCGGTTAGTGCTA: 0.172 z-score
TCATTTCCATCTCTCAAACTGTGCTAG: 3.08 z-score
GACGATTTCAGTATAGAGACGTGCTAG: 0.228 z-score
CCCACCATCTAGTTCTGCTTGTGCTAG: -0.00028 z-score
TTAGGTCTCAGTTTCGGTTAGTGCTAG: 8.53 z-score
TTAGGCCTGCTTCTCCTTTAGTGCTAG: 1.04 z-score
TTAGCTATCGGTATCGGTTAGTGCTAG: 0.973 z-score
TTAGTTTTCATTATTGTGTCGTGCTAG: 1.6 z-score
GACGATTTCAGTCTTGAGACGTGCTAG: 0.0837 z-score
ATTTATTTACTCTCTACATGGGTGCTA: 0.795 z-score
TTAGATATCAGTAACGATTAGTGCTAG: -0.139 z-score
TATGTTCACTATTTAAGGCCGTGCTAG: 0.912 z-score
ATGCTACAATAAGTGTTAGTGTGCTAG: -0.369 z-score
TTTTGCTTTCTTTTTGCACTGTGCTAG: 2.3 z-score
GACGGACTGCAACTGCTGACGTGCTAG: -0.992 z-score

Series 4
Target: CCNF, cyclin fold, Cln2 fusion (human)
Technique: yeast growth competition, sequencing
Matrix: yeast
Notes: strong parent motif
Relative to: not given
Direction: higher = stronger binding
Measurement: normalised enrichment score
Starting sequence: CDC6 docking peptide (human); TLKGRRLVFDNQL
GLKGRRLVFDNQL [T1G]: 8.69
TLKGRRLMFDNQL [V8M]: 7.67
TLKGRRLVFGNQL [D10G]: 7.15
TLKGRRLVYDNQL [F9Y]: 5.03
TLKGRQLVFDNQL [R6Q]: 6.76
TLKGRRLVQDNQL [F9Q]: 0.355
TLKGRRLVVDNQL [F9V]: 0.662
TLKGKRLVFDNQL [R5K]: 6.56
TLKGRRLVFDNQC [L13C]: 8.64
TLKGRPLVFDNQL [R6P]: 1.21
TVKGRRLVFDNQL [L2V]: 8.43
TLQGRRLVFDNQL [K3Q]: 7.81
DLKGRRLVFDNQL [T1D]: 6.8
TLKGRRLVTDNQL [F9T]: 0.673
TSKGRRLVFDNQL [L2S]: 7.08
TLKGRRLVFANQL [D10A]: 7.8
TLKGRRLVEDNQL [F9E]: 0.755
TLKGRRLTFDNQL [V8T]: 7.14
TLKGRRLVFDNQW [L13W]: 8.52
TLKDRRLVFDNQL [G4D]: 0.783
TLKERRLVFDNQL [G4E]: 1.25
TLKGRRLVFDNQT [L13T]: 8.26

Series 5
Target: ABI1, truncated, D143A, DHFR fusion (Arabidopsis thaliana)
Technique: DHFR PCA, deep sequencing
Matrix: yeast
Notes: methotrexate growth selection, single substitutions
Added: (+)-ABA 0.0091 µM
Relative to: wild-type fitted maximum
Direction: higher = stronger binding
Measurement: relative binding score
Starting sequence: PYL1, truncated, DHFR fusion (Arabidopsis thaliana); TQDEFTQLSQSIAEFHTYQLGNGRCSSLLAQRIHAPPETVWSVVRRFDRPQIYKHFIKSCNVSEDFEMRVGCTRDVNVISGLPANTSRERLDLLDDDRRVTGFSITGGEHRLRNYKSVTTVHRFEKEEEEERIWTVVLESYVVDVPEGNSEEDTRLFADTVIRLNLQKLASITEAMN
P83T: 23.5%
L156M: 23.8%
L91P: -11.1%
A158W: 9.29%
S42H: 1.49%
P83E: 13.6%
G102H: -11.6%
E131G: 56%
A158F: 21.2%
K58A: 7.75%
V70Q: -3.17%
S87R: 66.9%
F157E: -0.723%
M176A: 2.42%
G102I: -2.85%
V78G: 31.2%
K54V: -5.87%
A13L: 17.6%

Some of these lines once more (series 1):
GGAUCACUAAACUAGGUAGAGAAGGGCACACCACACCCCAGCGCCCCAGGAGCCAAAACUCACGCUCGGGCAGCAGCAGCUGAGGCUUGAGGAAGCUGGUGUCCUAAGAC: 0.242
GCUUGUAUGUUACCAUACAGCUGACAUGUAUUUUUUGUCUAUUCUUUAUUAUCUUAGUAGUUUCAUGCUGUGUAUGUACCAUAACCAACCUAUUGCCUAUGAGAAACAUG: 0.811
UUAAACCCCUGUUAACUCUCCAUAAAUUUGGUGAUUCUCUGCUAGGCCUAAGAUUUUGAGUUAACAUCUCUUGAAGCCAAACUCCACCUUCUGUGCUUUUUGCUUGGGAU: 0.43
CACCAGAUCAAAAGGCAUAAACCAGACCUGUCCCAGGCCGAUGUGGAAAUAUGUUCUUUCUAGUUGUGGGUACCCUGAUCUAGGUGGUUUGUAAUUGUGCAUUACUGACU: 0.494
UGGCUCAGCACAUUGACAUCACUAACUAGGGUUGGGAUAGCUUCCUACCCAGAUGACCAAAAAGCCAGUGGAAACAGUUAAGCCCCUCCAUAUCAGGCUUACCAAGAAUA: 0.335
GCACACAAACUAUGAGCAGACCACUUCAGCUUGAGAAUGCAGUGGGUCUGAAGAUGGUCAAGUCUGUUUGCCUUAGAUUUUGAUGUCACCUAGACAACACUUAAACUCAU: 13.2
GGAUUCCUGGGCAUCUACUUCCACAACUAAUACGUAUUCCACAGUGUUGGCUGUUGGCUUCAAAAAAAGGAAUUCUCUUAACAUGCUAUGUUGGUCAGCGUCCACCUCCU: 0.595
UCAGUGUUGGAGCUCUCUAUGAGGCCUUCUAUCCUUUGGCCCAUGCCUUGGAUGGAGACAGACACUACUGGAGAAGGGGGCUGCCUUCCCCAGAAAGAAUACUACCUAAA: 0.237
CUGGCCUCUGACUGCAUUGCUUUAGGUCGUAUUCAAACUCUCUUAAACAUUGUGCCAAGAAACGAUUUGUGGGAUUCAUGUCCCGAAACCAUUAAAUCUAUUGUUUGGAA: 0.714
GGAGAAGAGGGACCCCGGGGUUUCUAAUUUCAACCCCAAAUGACAUGUUUAUUUGCACCUGAUGCUCAGGAGCCAGAUGUGGACCCUGCAGAGCCAGGCUUGUACCACAG: 0.919
AUUUUCAUUUGUUUCAGUAUUGUUGGUUUUCUCUUUUCUCUUUUUUACACUGUGGUACAUAUAAGCAACUUGACUAGUGACAAAUGUACAGUAGUUAGAUAUCACCUACA: 0.905
UAUUAAAAACUCAUGUGGAGGAACUCAAGGAAUGUUUAGAAGACCAAAAGUCCCCAAUGACAGGAACAAAAGCAACCAAUUUUUAACUUUCUCUUCUCAUUCCUGUUUUC: 0.972
